Results gathered from unrelated publications.
Lines come from different studies, so protocols differ. Several values in a cell are separate wells, animals, samples, runs or records. Numbers after ± are the reported error.

`[Cl-].[Cl-].[Ru+2].c1ccc(-c2ccccn2)nc1.c1ccc(-c2ccccn2)nc1.c1ccc2cc3nc4c5cccnc5c5ncccc5c4nc3cc2c1` gave a phototoxicity index of 1150 (SK-MEL-28; normoxia, with: blue light 453 nm, 100 J/cm2; reference: dark over light EC50).
For `O=C(C[Se]C(=O)c1ccco1)Nc1cccc(C(F)(F)F)c1`, the GI50 was 2.55 µM (NCI60 NSCLC subpanel; NCI60 five-dose screen).
`CC(C)C[C@H](NC(=O)[C@H](CC(=O)O)NC(=O)CNC(=O)[C@@H](N)CCCNC(=N)N)C(=O)N[C@@H](C)C(=O)N[C@H](C(=O)N[C@@H](CC(C)C)C(=O)N[C@@H](CCCNC(=N)N)C(=O)N[C@@H](CCC(N)=O)C(=O)N[C@@H](CC(C)C)C(=O)N[C@@H](C)C(=O)N[C@@H](CCC(N)=O)C(=O)N[C@@H](CCC(=O)O)C(=O)N[C@@H](CC(=O)O)C(=O)NCC(=O)N[C@H](C(=O)N[C@H](C(=O)NCC(=O)N[C@H](C(=O)N[C@@H](CCCNC(=N)N)C(=O)NCCOCCOCCOCCOCCOCCOCCOCCOCCOCCOCCOCCOCCC(=O)N[C@@H](CS)C(N)=O)C(C)C)C(C)C)C(C)C)[C@@H](C)O` has a selectivity ratio of 5.9 ± 1.9 (H661 lung large cell carcinoma; cell binding, phage binding, measured: output/input phage; 10 min, 37 °C; reference: control phage).
`O=c1n(CCNCCOS(=O)(=O)c2ccccc2)c(=O)n(S(=O)(=O)c2ccccc2)c(=O)n1S(=O)(=O)c1ccccc1` has a viability of 33.8% (A549; cell growth or viability, MTT; 50 µg/mL, 48 h).
The inhibition of `C=CCN1C(=O)C(CC=C)(C(=O)OCC)Oc2cc(F)ccc21` (stereo not shown) is reported as 0.54 ± 0.23% (HEK293T; cytotoxicity, CCK-8; 50 µM, 72 h).
Under “catalase activity (OD450)”, `NC(=S)N/N=C/c1ccc(OCc2ccccc2)cc1` is recorded as 0.083 a.u. (IMR-32; 500 µg/mL, 24 h; higher = more activity).
`O=C(C[Se]C(=O)c1ccccc1)Nc1cccc(C(F)(F)F)c1` gave a GI50 of 2.28 µM (NCI60 NSCLC subpanel; NCI60 five-dose screen).
`CC(C)CC(O)(CC(C)C)c1cn(C(=O)N2CCCC2)nn1` has a protein level of 0.93 and 0.97 and 1.11 (mouse T-cells; SILAC proteomics, measured: Ptpn18; 1 nM, 6 h, single peptides, unit not given; reference: DMSO).
With `CC(C)(C)C(=O)OCOP(=O)(OCOC(=O)C(C)(C)C)C1CCCN(O)C1=O` (stereo not shown) the TGI was 8.81 µM (SK-OV-3).
`O=C1NC2(CC2)COc2ncc(F)cc2[C@H]2COCCN2c2ccn3ncc1c3n2`: “organ-to-body weight ratio” 0.648 ± 0.046% (Sprague-Dawley rat, male, testes; oral, 10 mg/kg/day, 4 weeks dosing, end of recovery).
`CC(=O)NCSC[C@H](NC(=O)[C@@H]1CCCN1C(=O)[C@H](C)NC(=O)[C@@H](NC(=O)CNC(=O)[C@@H](NC(=O)[C@H](Cc1c[nH]c2ccccc12)NC(=O)[C@H](C)NC(=O)CNC(=O)[C@H](CO)NC(=O)[C@H](C)NC(=O)[C@@H]1CCCN1C(=O)[C@H](Cc1c[nH]c2ccccc12)NC(=O)[C@H](C)NC(=O)[C@H](C)NC(=O)[C@@H](N)Cc1ccc(O)cc1)[C@@H](C)O)[C@@H](C)O)C(=O)N[C@@H](CO)C(=O)N[C@@H](C)C(=O)NCC(=O)N[C@H](C(=O)NCCOCCOCCOCCOCCOCCOCCOCCOCCOCCOCCOCCOCCC(=O)N[C@@H](CS)C(N)=O)[C@@H](C)O` gave a selectivity ratio of 79 ± 42 (H2087; phage binding; 10 min, 37 °C; reference: control phage).
With `O=C(C[Se]C(=O)c1ccc2ccccc2c1)Nc1cccc(C(F)(F)F)c1` the CC50 was 6.25 µM (NCI60 NSCLC subpanel; NCI60 five-dose screen).
`CC(C)Cc1ccc(C(C)C(=O)[O-])cc1.CC(C)Cc1ccc(C(C)C(=O)[O-])cc1.O.[Cu+2].c1ccncc1.c1ccncc1` (stereo not shown) — result for “total growth inhibition (TGI)”: > 100 µM (PC-3; MTT; 48 h).
`O=C(O)c1ccc(-c2nc(-c3ccccc3Cl)c3sccn23)cc1` — result for “CD61 fluorescence intensity”: 1.01 fold change and 1.04 fold change (K562; megakaryocyte differentiation, flow cytometry; 0.01 mM, 24 h; reference: untreated).
For `O=C(C[Se]C(=O)c1cc2ccccc2s1)Nc1cccc(C(F)(F)F)c1`, the CC50 was 6.17 µM (NCI60 prostate subpanel (PC-3, DU-145); cytotoxicity, inhibitor; five-dose).
`NC(=O)N/N=C/c1ccc(OCc2cccc(F)c2)cc1` — result for “catalase activity (OD450)”: 0.061 a.u. (IMR-32; 400 µg/mL, 24 h; higher = more activity).
For `CC(C)[C@H](NC(=O)[C@H](CCCNC(=N)N)NC(=O)[C@@H]1CCCN1C(=O)[C@@H](NC(=O)[C@H](C)NC(=O)[C@H](Cc1ccc(O)cc1)NC(=O)[C@H](CCC(N)=O)NC(=O)[C@H](CCCCN)NC(=O)[C@H](CCCNC(=N)N)NC(=O)[C@@H]1CCCN1C(=O)[C@H](CCC(=O)O)NC(=O)[C@@H](NC(=O)[C@H](C)N)[C@@H](C)O)[C@@H](C)O)C(=O)N[C@@H](Cc1ccccc1)C(=O)N[C@@H](Cc1c[nH]c2ccccc12)C(=O)N[C@H](C(=O)N[C@@H](CC(=O)O)C(=O)N[C@@H](C)C(=O)N1CCC[C@H]1C(=O)NCC(=O)NCCOCCOCCOCCOCCOCCOCCOCCOCCOCCOCCOCCOCCC(=O)N[C@@H](CS)C(N)=O)[C@@H](C)O`, the selectivity ratio was 2.2 ± 0.68 (HCC515; phage binding; reference: targeting over control phage).
The EC50 of `Cc1cccc(-c2cccc(C)n2)n1.Cc1cccc(-c2cccc(C)n2)n1.F[P-](F)(F)(F)(F)F.F[P-](F)(F)(F)(F)F.[Ru+2].c1ccc2c(-c3nc4c5cccnc5c5ncccc5c4[nH]3)cccc2c1` is reported as 47.6 ± 2.2 µM (SK-MEL-28; cell viability; 1% O2, with: green light 523 nm, 100 J/cm2).
For `C#CCN1C(=O)C(CC#C)(C(=O)OCC)Oc2ccccc21` (stereo not shown), the inhibition was 0.72 ± 0.33% (HEK293T; cytotoxicity, CCK-8; 50 µM, 72 h).
`CCN(Cc1ccccc1)C(=O)CCc1nc(CN2CCN(C(=O)Cc3ccc(OC)c(OC)c3)CC2)no1`: “action potential width” “no effect” (rat DRG neurons; current clamp; 30 nM to 10 µM; reference: control).
With `O=C(C[Se]C(=O)c1cccs1)Nc1cccc(C(F)(F)F)c1` the CC50 was 7.29 µM (NCI60 ovarian subpanel; cytotoxicity, inhibitor; five-dose).
`CSCC[C@H](NC(=O)[C@@H](NC(=O)[C@H](CCC(N)=O)NC(=O)[C@H](CO)NC(=O)[C@@H](N)C(C)C)[C@@H](C)O)C(=O)N[C@@H](CCCNC(=N)N)C(=O)N[C@@H](CCC(N)=O)C(=O)N[C@H](C(=O)N[C@@H](C)C(=O)N[C@H](C(=O)N1CCC[C@H]1C(=O)N[C@@H](CC(C)C)C(=O)N[C@@H](CC(C)C)C(=O)N[C@@H](Cc1c[nH]c2ccccc12)C(=O)N[C@@H](Cc1ccccc1)C(=O)N[C@@H](Cc1c[nH]c2ccccc12)C(=O)N[C@H](C(=O)NCC(=O)N[C@@H](CO)C(=O)N[C@@H](CC(C)C)C(=O)NCCOCCOCCOCCOCCOCCOCCOCCOCCOCCOCCOCCOCCC(=O)N[C@@H](CS)C(N)=O)[C@@H](C)O)C(C)C)[C@@H](C)O` has a selectivity ratio of 0.55 ± 0.14 (H1650 lung adenocarcinoma; cell binding, phage binding, measured: output/input phage; 10 min, 37 °C; reference: control phage).
With `COc1ccccc1-c1ccncc1C(=O)Nc1nnc(OCc2ccc(Cl)cc2)s1` the colony survival was 87.9% (RPE-1 BRCA1 WT parental; 2 µM, average of 2 runs; reference: untreated).
For `O=C(C[Se]C(=O)c1cc2ccccc2[nH]1)Nc1cccc(C(F)(F)F)c1`, the CC50 was 6.24 µM (NCI60 ovarian subpanel; cytotoxicity, inhibitor; five-dose).
The IC50 of `Cc1cc(Oc2nc(N3CC[C@@H](c4ccncc4)C3)ncc2F)[nH]n1` is reported as > 100 µM (SK-MEL-28; cell proliferation; skin cancer).
